Measurements of several laboratories.
Protocols differ between the studies behind these lines. “And” joins repeats or separate records; there may be more than shown. ± marks the error that the study gave.
qscR DNA-bound dimer: qscR, DNA-bound dimer (Pseudomonas aeruginosa, UniProt G3XD77)
BCL6: B-cell lymphoma 6 protein (BCL6, Homo sapiens, UniProt P41182)
NR1H3: Oxysterols receptor LXR-alpha (NR1H3, Homo sapiens, UniProt Q13133)
Sequence of UniProt Q13133 (whole entry, looked up): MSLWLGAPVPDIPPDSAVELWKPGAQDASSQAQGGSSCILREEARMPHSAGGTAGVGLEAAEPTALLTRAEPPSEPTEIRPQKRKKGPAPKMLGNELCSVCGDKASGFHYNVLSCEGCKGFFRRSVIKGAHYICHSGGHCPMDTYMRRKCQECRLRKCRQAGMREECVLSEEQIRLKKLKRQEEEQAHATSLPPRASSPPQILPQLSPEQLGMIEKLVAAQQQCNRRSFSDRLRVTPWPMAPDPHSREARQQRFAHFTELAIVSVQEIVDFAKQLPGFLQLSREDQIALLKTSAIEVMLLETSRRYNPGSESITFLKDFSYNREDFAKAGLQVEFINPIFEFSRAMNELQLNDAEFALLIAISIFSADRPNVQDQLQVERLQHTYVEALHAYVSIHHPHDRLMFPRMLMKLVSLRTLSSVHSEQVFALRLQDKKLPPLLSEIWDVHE
Sequence of UniProt P08172 (whole entry, looked up): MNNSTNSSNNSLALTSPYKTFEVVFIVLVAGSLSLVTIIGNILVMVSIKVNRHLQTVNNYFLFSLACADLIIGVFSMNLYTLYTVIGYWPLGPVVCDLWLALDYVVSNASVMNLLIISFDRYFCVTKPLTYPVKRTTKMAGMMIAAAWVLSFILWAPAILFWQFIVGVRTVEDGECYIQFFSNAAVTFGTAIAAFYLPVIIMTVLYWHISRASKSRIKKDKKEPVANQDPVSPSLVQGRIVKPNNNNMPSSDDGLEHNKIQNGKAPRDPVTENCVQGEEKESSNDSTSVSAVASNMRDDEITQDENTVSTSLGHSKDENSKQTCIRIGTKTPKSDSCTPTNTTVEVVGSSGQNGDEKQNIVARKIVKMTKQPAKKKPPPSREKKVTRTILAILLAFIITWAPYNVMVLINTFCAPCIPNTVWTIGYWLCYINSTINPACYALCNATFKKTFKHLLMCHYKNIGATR
Sequence of UniProt Q7RTT9 (whole entry, looked up): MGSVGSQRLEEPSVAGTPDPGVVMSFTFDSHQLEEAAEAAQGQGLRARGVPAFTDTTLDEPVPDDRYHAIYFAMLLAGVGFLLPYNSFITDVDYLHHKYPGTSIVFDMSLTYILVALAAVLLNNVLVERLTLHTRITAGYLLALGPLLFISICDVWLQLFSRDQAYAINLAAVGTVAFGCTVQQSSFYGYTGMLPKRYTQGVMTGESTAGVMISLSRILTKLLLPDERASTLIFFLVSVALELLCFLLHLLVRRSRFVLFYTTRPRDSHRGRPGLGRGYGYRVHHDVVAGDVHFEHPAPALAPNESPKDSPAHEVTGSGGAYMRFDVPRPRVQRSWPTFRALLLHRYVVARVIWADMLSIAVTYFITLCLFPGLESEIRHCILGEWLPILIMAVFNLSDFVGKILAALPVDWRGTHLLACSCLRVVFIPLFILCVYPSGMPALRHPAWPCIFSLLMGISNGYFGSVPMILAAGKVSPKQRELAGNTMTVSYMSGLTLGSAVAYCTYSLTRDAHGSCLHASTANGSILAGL
Sequence of UniProt P19492 (whole entry, looked up): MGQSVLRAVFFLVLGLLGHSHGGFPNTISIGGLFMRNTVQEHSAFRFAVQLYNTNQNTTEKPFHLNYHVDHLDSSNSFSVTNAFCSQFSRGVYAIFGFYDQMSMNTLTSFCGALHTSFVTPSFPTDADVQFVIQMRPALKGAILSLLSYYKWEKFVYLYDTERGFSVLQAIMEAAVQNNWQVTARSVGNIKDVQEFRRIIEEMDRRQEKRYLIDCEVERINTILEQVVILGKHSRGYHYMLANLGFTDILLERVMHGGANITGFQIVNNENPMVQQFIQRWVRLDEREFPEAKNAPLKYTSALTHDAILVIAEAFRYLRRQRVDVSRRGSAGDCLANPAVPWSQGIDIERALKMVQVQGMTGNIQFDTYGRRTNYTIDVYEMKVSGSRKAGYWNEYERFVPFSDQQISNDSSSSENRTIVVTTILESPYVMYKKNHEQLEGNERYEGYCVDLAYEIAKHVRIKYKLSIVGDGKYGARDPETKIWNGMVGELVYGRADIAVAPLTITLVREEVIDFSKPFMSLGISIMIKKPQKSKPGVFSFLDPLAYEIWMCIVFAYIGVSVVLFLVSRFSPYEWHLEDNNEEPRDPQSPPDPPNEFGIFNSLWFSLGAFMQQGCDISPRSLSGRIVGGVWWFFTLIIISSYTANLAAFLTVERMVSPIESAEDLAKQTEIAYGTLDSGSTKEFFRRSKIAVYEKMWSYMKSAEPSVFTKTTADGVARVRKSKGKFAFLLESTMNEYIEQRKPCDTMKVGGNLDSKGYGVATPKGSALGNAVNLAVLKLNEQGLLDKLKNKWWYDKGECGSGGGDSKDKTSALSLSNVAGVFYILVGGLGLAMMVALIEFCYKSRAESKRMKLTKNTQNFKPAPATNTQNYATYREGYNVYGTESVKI
Sequence of UniProt P47901 (whole entry, looked up): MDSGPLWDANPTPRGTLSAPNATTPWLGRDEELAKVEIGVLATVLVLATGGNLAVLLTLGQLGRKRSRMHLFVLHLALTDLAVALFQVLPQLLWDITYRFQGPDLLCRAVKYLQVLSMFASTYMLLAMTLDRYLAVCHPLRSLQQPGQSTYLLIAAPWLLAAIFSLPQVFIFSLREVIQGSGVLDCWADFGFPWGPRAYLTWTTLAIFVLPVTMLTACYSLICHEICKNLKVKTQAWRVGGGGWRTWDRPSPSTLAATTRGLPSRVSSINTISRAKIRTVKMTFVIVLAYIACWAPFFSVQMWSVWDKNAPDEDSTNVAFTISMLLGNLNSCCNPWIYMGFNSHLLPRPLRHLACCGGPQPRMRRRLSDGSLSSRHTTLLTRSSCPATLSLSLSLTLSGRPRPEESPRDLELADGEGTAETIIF
Sequence of UniProt O15399 (whole entry, looked up): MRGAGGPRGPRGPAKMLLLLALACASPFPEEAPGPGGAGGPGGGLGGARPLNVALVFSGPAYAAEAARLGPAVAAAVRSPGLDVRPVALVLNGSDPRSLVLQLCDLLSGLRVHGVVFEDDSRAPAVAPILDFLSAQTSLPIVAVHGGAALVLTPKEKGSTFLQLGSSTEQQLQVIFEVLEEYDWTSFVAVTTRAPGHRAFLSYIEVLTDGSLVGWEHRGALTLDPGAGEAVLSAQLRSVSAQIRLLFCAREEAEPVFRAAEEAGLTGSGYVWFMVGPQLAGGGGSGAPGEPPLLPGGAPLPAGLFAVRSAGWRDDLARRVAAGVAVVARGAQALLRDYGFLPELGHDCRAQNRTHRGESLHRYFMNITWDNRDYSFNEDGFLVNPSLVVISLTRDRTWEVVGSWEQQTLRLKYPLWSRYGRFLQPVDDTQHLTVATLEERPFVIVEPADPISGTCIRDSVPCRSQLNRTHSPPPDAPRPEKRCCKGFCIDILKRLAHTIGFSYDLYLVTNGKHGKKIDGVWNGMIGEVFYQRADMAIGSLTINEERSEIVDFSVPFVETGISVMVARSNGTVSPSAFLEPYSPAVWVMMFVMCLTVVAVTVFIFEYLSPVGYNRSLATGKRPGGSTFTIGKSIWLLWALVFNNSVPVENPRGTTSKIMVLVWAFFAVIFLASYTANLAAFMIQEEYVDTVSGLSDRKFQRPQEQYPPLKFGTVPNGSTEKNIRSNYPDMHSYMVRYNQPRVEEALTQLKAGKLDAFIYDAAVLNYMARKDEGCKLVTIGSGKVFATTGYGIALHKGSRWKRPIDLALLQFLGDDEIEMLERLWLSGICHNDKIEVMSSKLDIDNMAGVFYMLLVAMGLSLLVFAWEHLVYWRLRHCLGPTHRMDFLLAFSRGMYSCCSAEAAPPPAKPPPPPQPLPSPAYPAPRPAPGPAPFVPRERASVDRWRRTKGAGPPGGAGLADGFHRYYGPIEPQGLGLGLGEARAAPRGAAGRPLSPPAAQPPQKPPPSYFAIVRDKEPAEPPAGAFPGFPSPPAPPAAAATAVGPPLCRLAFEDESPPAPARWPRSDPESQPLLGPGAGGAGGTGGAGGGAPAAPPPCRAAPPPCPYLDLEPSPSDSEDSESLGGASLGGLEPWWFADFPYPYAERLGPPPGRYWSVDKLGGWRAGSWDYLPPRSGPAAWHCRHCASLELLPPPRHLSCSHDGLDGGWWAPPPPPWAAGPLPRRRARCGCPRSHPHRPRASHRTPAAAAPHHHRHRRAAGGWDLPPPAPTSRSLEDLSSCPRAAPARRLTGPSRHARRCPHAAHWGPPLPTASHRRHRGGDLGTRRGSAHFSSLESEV
Sequence of UniProt P51449 (whole entry, looked up): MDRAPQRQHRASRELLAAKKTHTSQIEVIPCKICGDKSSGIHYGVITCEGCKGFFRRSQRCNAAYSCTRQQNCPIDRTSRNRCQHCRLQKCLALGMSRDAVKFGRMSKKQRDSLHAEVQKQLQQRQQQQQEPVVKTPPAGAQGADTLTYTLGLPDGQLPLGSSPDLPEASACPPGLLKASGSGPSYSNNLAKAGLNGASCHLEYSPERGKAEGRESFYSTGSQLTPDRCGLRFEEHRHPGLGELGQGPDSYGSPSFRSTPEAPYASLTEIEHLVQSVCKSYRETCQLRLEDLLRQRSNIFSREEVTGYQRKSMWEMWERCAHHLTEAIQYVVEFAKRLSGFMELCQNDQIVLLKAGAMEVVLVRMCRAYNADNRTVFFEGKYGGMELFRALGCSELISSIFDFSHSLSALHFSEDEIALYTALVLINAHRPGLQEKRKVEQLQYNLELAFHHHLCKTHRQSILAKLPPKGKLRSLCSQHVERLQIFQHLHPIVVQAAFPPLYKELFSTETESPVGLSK
Sequence of UniProt P21917 (whole entry, looked up): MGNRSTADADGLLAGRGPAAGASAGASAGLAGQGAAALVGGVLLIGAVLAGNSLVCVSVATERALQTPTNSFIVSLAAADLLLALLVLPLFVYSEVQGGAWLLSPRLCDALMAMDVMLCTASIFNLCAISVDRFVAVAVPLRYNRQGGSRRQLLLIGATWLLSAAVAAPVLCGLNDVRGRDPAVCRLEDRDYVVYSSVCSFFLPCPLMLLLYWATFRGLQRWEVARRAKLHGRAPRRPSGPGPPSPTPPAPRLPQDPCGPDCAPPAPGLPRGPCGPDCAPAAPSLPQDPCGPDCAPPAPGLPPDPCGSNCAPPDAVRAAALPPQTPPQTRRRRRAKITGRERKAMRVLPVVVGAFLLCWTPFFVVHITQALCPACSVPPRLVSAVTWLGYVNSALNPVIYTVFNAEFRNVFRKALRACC

SMILES | target | assay | system | setting | IC50
CN1Cc2cc(Cl)ccc2-n2c(nnc2C2CCN(c3ccccn3)CC2)C1 | Vasopressin V1b receptor (AVPR1B, Homo sapiens, UniProt P47901) | binding | – | – | > 10 µM
CCCCCCCCCC(=O)CC(=O)Nc1ccccc1 | qscR DNA-bound dimer | ligand binding, FRET displacement | – | protein 5 nM with DNA, added: fluorescent ligand 2 µM | 44.9 µM
COCO[C@@H]1[C@H]2OC(C)(C)O[C@H]2[C@H](O[C@H]2C[C@H]3OC(C)(C)OC[C@]34[C@@H]3[C@@H](CC[C@]4(O)C2)[C@@]2(O)CC[C@H](CO)[C@@]2(C)C[C@H]3OCOC)O[C@H]1C | Voltage-gated inwardly rectifying potassium channel KCNH2 (KCNH2, Homo sapiens, UniProt Q12809) | inhibitor | – | – | > 62.5 µM
C[C@H]1CN(c2n[nH]c3nc(N[C@H]4CC[C@H](NS(=O)(=O)CCC(F)(F)F)CC4)ncc23)CCO1 | Kinase suppressor of Ras 1 (KSR1, Homo sapiens, UniProt Q8IVT5) | biochemical | – | – | ≥ 20 µM
CC1CCCN(c2ncc(Cl)c(Nc3ccc4c(c3)n(CCC(C)(C)O)c(=O)n4C)n2)C1 (stereo not drawn) | BCL6 | – | – | – | 0.89 µM and 0.36 µM and 0.81 µM
Cc1cc(-c2ccco2)ccc1NCc1ccc(CN2C[C@H](O)[C@@H](O)[C@H](O)[C@H]2CO)cc1 | Mogs (Mus musculus, UniProt Q80UM7) | enzyme activity, inhibitor | – | added: trisaccharide substrate | < 0.001 µM
N#Cc1cc2nc(O)c(O)nc2cc1[N+](=O)[O-] | Glutamate receptor 3 (Rattus norvegicus, UniProt P19492) | – | – | – | 1.5 ± 0.3 µM
COc1ncccc1-c1cnn2ccc(N3CCN(C(=O)OC(C)C)CC3)nc12 | Muscarinic acetylcholine receptor M2 (CHRM2, Homo sapiens, UniProt P08172) | liability screen | – | – | 23 µM
CC(=O)c1cc(O)c2ccccc2c1O | Genome polyprotein, methyltransferase domain (pol, Dengue virus type 3, UniProt Q6YMS4) | HTRF | Dengue virus 3 | – | 3.9 µM
Nc1ncnc2c1c(Oc1cncc(C(F)(F)F)c1)nn2C1CC1 | Calmodulin-domain protein kinase 1 (CDPK1, Toxoplasma gondii, UniProt Q9BJF5) | enzyme activity, inhibitor | – | – | > 20 µM
CCCCCCCCCC(=O)NC1CCCC1 | qscR DNA-bound dimer | ligand binding, FRET displacement | – | protein 5 nM with DNA, added: fluorescent ligand 2 µM | 2.34 µM
CNC(C)Cc1ccc2nsnc2c1 (stereo not drawn) | Equilibrative nucleoside transporter 4 (SLC29A4, Homo sapiens, UniProt Q7RTT9) | – | – | – | 17 ± 8.3 µM
COc1cc(Nc2ncc(F)c(Nc3ccc4c(n3)NC(=O)C(C)(C)O4)n2)cc(OC)c1OC | Caspase-10 (CASP10, Homo sapiens, UniProt Q92851) | – | – | – | > 10 µM
CO[C@H]1C[C@H](O[C@@H]2/C(C)=C/C[C@@H]3C[C@@H](C[C@]4(CC[C@H](C)[C@@H](C5CCCCC5)O4)O3)OC(=O)[C@@H]3C=C(C)/C(=N/O)[C@H]4OC/C(=C\C=C\[C@@H]2C)[C@]43O)O[C@@H](C)[C@@H]1O | NR1H3 | receptor activity, inhibitor | cells | – | 10.8 ± 3.75 µM
CCCC(=O)CC(=O)N[C@H]1CCOC1=O | qscR, ligand-binding domain (Pseudomonas aeruginosa, UniProt G3XD77) | ligand binding, FRET displacement | – | ligand-binding domain 5 nM, added: fluorescent ligand 2 µM | 30.3 µM
Cn1c(=O)n(CCC(C)(C)O)c2cc(Nc3ncnc(Cl)c3Cl)ccc21 | BCL6 | – | – | – | 1.95 µM
COCCn1c2nc(=O)n(-c3ccccc3)c(=O)c-2nc2ccccc21 | Genome polyprotein, NS5 methyltransferase domain (GP1, West Nile virus, UniProt Q9Q6P4) | IC50-disp | – | – | 13 µM
Cc1c([C@H](C)[C@@H]2NC[C@@H](C)C[C@H]2O)ccc2c1C[C@H]1[C@H]2CC=C2C[C@@H](O)CC[C@@]21C | Nuclear receptor ROR-gamma (RORC, Homo sapiens, UniProt P51449) | reporter gene, inhibitor, GAL4 dual-luciferase reporter | HEK293T | 24 h | 4.37 ± 1.55 µM

SMILES | target | assay | system | setting | IC50
CO/N=C1\C[C@]2(C[C@@H]3C[C@@H](C/C=C(\C)C[C@@H](C)/C=C/C=C4\CO[C@@H]5[C@H](O)C(C)=C[C@@H](C(=O)O3)[C@]45O)O2)O[C@H](/C(C)=C/C(C)C)[C@H]1C | NR1H3 | receptor activity, inhibitor | – | – | 11.1 ± 5.3 µM
C=CC(=O)N[C@H]1C=C(C)c2c(-c3cnc4ccccc4c3)c3c(N)ncnc3n2C1 | Epidermal growth factor receptor (EGFR, Homo sapiens, UniProt P00533) | – | mouse | – | 0.98 µM
O=C(O)CC(F)(F)C(=O)N1N=C(c2c(-c3ccc(Cl)cc3)c3ccccc3[nH]c2=O)C[C@H]1c1ccc(Cl)cc1 | Ionotropic glutamate receptor NMDA 1/2D (GRIN2D/GRIN1, Homo sapiens, UniProt O15399+Q05586) | steady-state current, inhibitor, whole-cell patch clamp | HEK293T | added: glutamate, glycine | 0.0417 µM
Ic1ccccc1CN[C@@H]1C2CCN(CC2)[C@@H]1C(c1ccccc1)c1ccccc1 (racemic) | Substance-P receptor (TACR1, Homo sapiens, UniProt P25103) | inhibitor | – | human, concurrent measurement | 0.00725 µM
CCOP(=O)(OCC)Oc1nc(Cl)c(Cl)cc1Cl | carboxylesterase (mouse) | – | PON1+/+ mouse liver homogenate | 30 min, 23 °C | 0.0043 ± 0.0008 µM
CC1CN(c2ncc(Cl)c(Nc3ccc4c(c3)n(CCC(C)(C)O)c(=O)n4C)n2)CCC1(F)F (stereo not drawn) | BCL6 | – | – | – | 0.37 µM and 0.29 µM
O=c1c2ccccc2nc(S)n1-c1ccccc1 | collagenase | enzyme activity, inhibitor | – | added: casein substrate | 4 ± 1.41 µg/mL
Cc1ccnn1-c1ncc(Cl)c(Nc2ccc3c(c2)n(CCC(C)(C)O)c(=O)n3C)n1 | BCL6 | – | – | – | 0.56 µM and 0.22 µM and 0.33 µM
CCCCOc1ccc(C(=O)CCN2CCCCC2)cc1 | D(4) dopamine receptor (DRD4, Homo sapiens, UniProt P21917) | radioligand binding, inhibitor | CHO-K1 | added: [3H]spiperone | 4.11 µM
CCCCCC/C=C\CCCCCCCCCC(=O)NP(=O)(O)O | Glycerol-3-phosphate acyltransferase (plsY, Streptococcus pneumoniae, UniProt P0A4Q0) | inhibitor | – | – | 11 µM
Cn1c(=O)n(CCC(C)(C)O)c2cc(Nc3nc(N4CCCC(C#N)C4)ncc3Cl)ccc21 (stereo not drawn) | BCL6 | – | – | – | 0.34 µM and 0.36 µM and 0.5 µM
CCOC(=O)CC(SP(=O)(OC)OC)C(=O)OCC (stereo not drawn) | carboxylesterase (mouse) | – | PON1+/+ mouse liver homogenate | 30 min, 23 °C | 0.309 ± 0.0292 µM
CC[C@H](O)Cn1c(=O)n(C)c2ccc(Nc3ccnc(Cl)c3C#N)cc21 | BCL6 | – | – | – | 5.11 µM and 4.34 µM and 4.27 µM
Nc1c(S(=O)(=O)O)cc(Nc2ccc(Nc3nc(Cl)nc(Nc4cccc(S(=O)(=O)O)c4)n3)c(S(=O)(=O)O)c2)c2c1C(=O)c1ccccc1C2=O | P2X purinoceptor 7 (P2RX7, Homo sapiens, UniProt Q99572) | calcium mobilization, antagonist | MCF7 transfected with P2RX7 | added: 100 µM BzATP | 4.44 ± 0.21 µM
Cn1c(=O)n(CCC(C)(C)O)c2cc(Nc3nc(N4CC5CCC(C4)C5(F)F)ncc3Cl)ccc21 | BCL6 | – | – | – | 0.75 µM and 0.47 µM and 1.01 µM
CN1C(=O)Cc2ccc(F)c(CNCCCC3CN(c4ccc5c(n4)NC(=O)CO5)C(=O)O3)c21 (stereo not drawn) | DNA topoisomerase 4 subunit A, with ParE subunit (Escherichia coli K-12, UniProt P0AFI2) | decatenation activity, inhibitor | – | – | 0.46 µM
Cn1c(=O)n(CCC(C)(C)O)c2cc(Nc3nc(N4CCOCC4)ncc3Cl)ccc21 | BCL6 | – | – | – | 0.34 µM and 0.2 µM
Oc1cccc(CCN(CCc2ccccc2)CC2CC2)c1 | Kappa-type opioid receptor (Oprk1, Mus musculus, UniProt P33534) | cAMP inhibition, agonist, GloSensor luminescence | HEK293 | room temperature, added: 30 µM forskolin | 0.0095 µM

Excerpt of the above:
SMILES | target | assay | system | setting | IC50
CC[C@H](O)Cn1c(=O)n(C)c2ccc(Nc3ccnc(Cl)c3C#N)cc21 | BCL6 | – | – | – | 5.11 µM and 4.34 µM and 4.27 µM
CCCCCCCCCC(=O)CC(=O)Nc1ccccc1 | qscR DNA-bound dimer | ligand binding, FRET displacement | – | protein 5 nM with DNA, added: fluorescent ligand 2 µM | 44.9 µM
CC1CCCN(c2ncc(Cl)c(Nc3ccc4c(c3)n(CCC(C)(C)O)c(=O)n4C)n2)C1 (stereo not drawn) | BCL6 | – | – | – | 0.89 µM and 0.36 µM and 0.81 µM
